Assay results collected from several papers.
Lines come from different studies, so protocols differ. Values joined by “and” are separate records of one study, mostly repeats; a detail may differ. ± marks the error that the study gave.
Cell line: A549

SMILES = CC1=CC[C@]2(C(=O)O[C@H]3OC[C@@H](O)[C@@H](O)[C@@H]3OS(=O)(=O)O)CC[C@]3(C)C(CCC4[C@@]5(C)CC[C@H](O)C(C)(C)C5CC[C@]43C)C2[C@H]1C (stereo partly drawn); test = annexin V/PI flow cytometry; setting = 2.34 µM, 48 h; measurement = apoptotic cells; value = 21.5%
SMILES = Cc1cccc(-c2cccc(C)n2)n1.Cc1cccc(-c2cccc(C)n2)n1.[Cl-].[Cl-].[Ru+2].c1ccc(-c2ccnc3c2ccc2c(-c4ccccc4)ccnc23)cc1; test = resazurin; scale = reference: dark EC50 over light EC50; measurement = phototoxicity index; value = 2.5 and > 2.5
SMILES = [Cl-].[Cl-].[Ru+2].c1ccc2nc(-c3ccc4ccccc4n3)ccc2c1.c1ccc2nc(-c3ccc4ccccc4n3)ccc2c1.c1cnc2c(c1)ccc1cccnc12; test = oxygen consumption rate, Seahorse extracellular flux; setting = 1 h, with: indigo light 450 nm, 29.1 J/cm2; measurement = lowest concentration inhibiting OCR; value = 10 µM
SMILES = C[C@@H]1O[C@H]2O[C@@H]3C4(O)C(=O)c5cccc(O)c5C(=O)C4(O)O[C@]3(C)[C@]21O (stereo partly drawn); test = cell growth or viability, MTT; setting = 48 h; measurement = EC50; value = 46.7 µg/mL
SMILES = CCN1CCC2(CC1)C/C(=N\NC(=O)Nc1ccccc1)c1ccccc1O2; test = PI staining, flow cytometry; setting = concentration not given, %G0-G1; measurement = cell cycle distribution; value = 56.2%
SMILES = [Cl-].[Cl][Ru-]1[S+]=C(N2CCCC2)N[N+]1=Cc1ccc(N(c2ccccc2)c2ccccc2)cc1.c1ccccc1; setting = 20 µM, 24 h, then 10 days growth; measurement = colony formation; value = inhibited
SMILES = O=C1Nc2ccc(Cl)cc2/C1=N/Nc1nnc(Cc2ccccc2)c2ccccc12; setting = 5 µM, 16 h; measurement = caspase-3/7 activity; value = 3 fold
SMILES = COc1ccc([C@@H]2CC(=O)c3c(O)cc(O[C@@H]4O[C@H](CO[C@@H]5O[C@@H](C)[C@H](O)[C@@H](O)[C@H]5O)[C@@H](O)[C@H](O)[C@H]4O)cc3O2)cc1O; test = cell migration, scratch; setting = 150 µg/mL, 72 h; measurement = gap closure; value = 10.1 ± 1.64%
SMILES = COCc1nc(C(F)(F)F)[nH]c1-c1cc(C(=O)N2CC(c3ccc(C#N)cc3)C2)c(C)cc1C; test = tubulin palmitoylation, acyl-biotin exchange Western blot, measured: palmitoyl-α-tubulin; setting = 50 nM, 72 h; measurement = inhibition; value = 67%
SMILES = Cc1ccc2ccc3ccc(C)nc3c2n1.Cc1ccc2ccc3ccc(C)nc3c2n1.Clc1ccc(-c2cc(-c3ccccn3)nn2-c2ccccc2)cc1.[Cl-].[Cl-].[Ru+2]; test = Seahorse Mito Stress Test; setting = concentration not given, with: 450 nm light 29.1 J/cm2; scale = reference: vehicle; measurement = maximal respiration reduction; value = < 30%
SMILES = FC(F)(F)c1ccnc(-c2cc(C(F)(F)F)ccn2)c1.FC(F)(F)c1ccnc(-c2cc(C(F)(F)F)ccn2)c1.[Cl-].[Cl-].[Ru+2].c1csc(-c2ccc(-c3ccc(-c4ccc(-c5nc6c7cccnc7c7ncccc7c6[nH]5)s4)s3)s2)c1; test = cell viability; setting = 100 J/cm2 light, normoxia, with: visible light 400-700 nm; scale = reference: dark over light EC50; measurement = phototherapeutic index; value = 1500
SMILES = [Cl-].[Cl-].[Ru+2].c1ccc(-c2ccnc3c2ccc2c(-c4ccccc4)ccnc23)cc1.c1cnc2c(c1)ccc1cccnc12.c1cnc2c(c1)ccc1cccnc12; test = oxygen consumption rate, Seahorse extracellular flux; setting = 1 h, dark; measurement = lowest concentration inhibiting OCR; value = > 1 µM
SMILES = CC(C)=CCn1c2cccc(=O)c-2nc2ccccc21; test = cytotoxicity, WST-8; scale = reference: IC50 MRC5 over IC50 A549; measurement = selectivity index; value = 0.99
SMILES = Cc1ccc(C2=Nn3c(N/N=C4/C(=O)Nc5ccc(Br)cc54)nnc3SC2)cc1; setting = 10 µM; measurement = growth inhibition; value = 17%
SMILES = CC(=O)OCC1(O)C(Nc2cccc(C(C)=O)c2)C(N)C(NC(=O)N(C)C)(C(C)OC(C)=O)C1(C)O (stereo not drawn); test = cell growth or viability; measurement = EC50; value = 137 nM
SMILES = Cn1nc(I)c2c(N)ncnc21; test = cell growth or viability; measurement = EC50; value = 1000 nM
SMILES = C[C@]1(CO)C2CC[C@@]3(CO3)[C@@H](/C=C/C3=CCOC3=O)[C@]2(C)CC[C@H]1O (stereo partly drawn); test = cell growth or viability, MTT; setting = 20 µM, 48 h; measurement = inhibition; value = 20.5%
SMILES = COc1ccc(/C=C/C2=[N+]3C(=C(CO)c4c(C)cc(/C=C/c5ccc(OC)cc5)n4[B-]3(F)F)C(C)=C2C=O)cc1; test = resazurin; setting = with: 645 nm light; scale = reference: dark over light IC50; measurement = phototoxicity index; value = 12 ± 1

For quick reference, copied from above:
SMILES = Cc1cccc(-c2cccc(C)n2)n1.Cc1cccc(-c2cccc(C)n2)n1.[Cl-].[Cl-].[Ru+2].c1ccc(-c2ccnc3c2ccc2c(-c4ccccc4)ccnc23)cc1; test = resazurin; scale = reference: dark EC50 over light EC50; measurement = phototoxicity index; value = 2.5 and > 2.5
SMILES = O=C1Nc2ccc(Cl)cc2/C1=N/Nc1nnc(Cc2ccccc2)c2ccccc12; setting = 5 µM, 16 h; measurement = caspase-3/7 activity; value = 3 fold
SMILES = CCN1CCC2(CC1)C/C(=N\NC(=O)Nc1ccccc1)c1ccccc1O2; test = PI staining, flow cytometry; setting = concentration not given, %G0-G1; measurement = cell cycle distribution; value = 56.2%
